# Results from different studies.
# Parts stem from different laboratories: compare values within a part only. Changes are numbered by the printed parent chain.

# Sample 1 — target: CREBL2, bZIP domain (human); method: DHFR protein complementation; matrix: yeast; reference: wild-type JUN-FOS pair; reading: higher = stronger binding
# Setting: single substitutions, most at no-binding floor
# Starting sequence: JUN, bZIP domain (human); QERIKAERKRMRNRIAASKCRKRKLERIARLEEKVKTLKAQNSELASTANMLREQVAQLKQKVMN; partner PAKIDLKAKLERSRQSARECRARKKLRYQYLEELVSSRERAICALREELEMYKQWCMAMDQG
Substitution,binding fitness [natural log]
Q41P,-1.54
N42V,-1.45
L59R,-1.48
Q55V,-1.62
S43E,-1.28
K34A,-1.19
T37M,-1.23
M51W,-1.48
L38F,-1.5
A57E,-1.5
I28S,-1.19
E32N,-1.53
Q55F,-1.65
E44G,-1.42
K34F,-1.39
L31K,-1.59
K39N,-1.52

# Sample 2 — method: protein-binding microarray; form: double-stranded DNA, one strand shown; matrix: in vitro; concentration: not given; reading: higher = stronger binding
# Target: Max-binding protein MNT, bHLH-zipper, MAX partner unstated (MNT, Homo sapiens, UniProt Q99583, residues 220-300)
# Setting: k-mer, scored over probes, only values ≥0.25
# Target sequence (chain): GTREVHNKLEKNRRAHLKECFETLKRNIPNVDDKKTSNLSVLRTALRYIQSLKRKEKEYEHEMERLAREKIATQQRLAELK
Oligonucleotide,E-score
CGTGCCAA,0.329
ACACGATG,0.32
CGTGCACA,0.355
GTGGCCAC,0.369
AGCGCACG,0.392
ACTCGTGG,0.41
CGTGCGAG,0.34
CGTGTTCA,0.39
ATGCGGCG,0.283
ACCACCTG,0.333
GAGCACGA,0.305
CATGTCAC,0.343
CACGAGCA,0.296
CGGTGCGC,0.281
ACGTGTTG,0.404
CACGAGAC,0.385

# Sample 3 — method: aptamer microarray, sandwich; form: DNA with 2'F-ANA; matrix: in vitro; concentration: 200 nM; added: Cy3 exosite-II aptamer, 400 nM; reading: higher = stronger binding; oligonucleotide: GGTTGGTGTGGTTGG
# Target: Prothrombin, mature alpha-thrombin (F2, Homo sapiens, UniProt P00734)
# Setting: whole 15-mer aptamer, many near background
Modification,mean fluorescence intensity
2'F-ANA at 1 3 5 7 10 11 12 14 15,51.6 a.u.
2'F-ANA at 4 5 7 8 10 11 12 14 15,50.6 a.u.
2'F-ANA at 8 10 12 13 14,113 a.u.
2'F-ANA at 1 3 7 9 11 12 13 15,361 a.u.
2'F-ANA at 4 9 10 12 13 14 15,63.6 a.u.
2'F-ANA at 1 5 7 8 13 15,62.2 a.u.
2'F-ANA at 3 5 6 7 9 11 14 15,53 a.u.
2'F-ANA at 1 2 3 5 7 9 10 11 15,45.8 a.u.
2'F-ANA at 3 8 9 10 14 15,395 a.u.
2'F-ANA at 2 3 4 5 7 9 10 11 12 13,57.5 a.u.
2'F-ANA at 1 3 6 9 12 13 15,362 a.u.
2'F-ANA at 5 6 7 10 13 14 15,45.6 a.u.
2'F-ANA at 2 3 4 5 7 9 10 13 14,49.7 a.u.
2'F-ANA at 1 2 4 5 6 9 10 12 13,48.2 a.u.
2'F-ANA at 5 8 10 11 15,46.8 a.u.
2'F-ANA at 4 5 6 7 8 12 14,46.6 a.u.
2'F-ANA at 1 2 5 7 9 13 15,49.9 a.u.
2'F-ANA at 3 4 7 8 9 10 11 13 15,294 a.u.
2'F-ANA at 1 2 4 9 10 11,49.3 a.u.
2'F-ANA at 2 3 6 7 8 9 11 13 14 15,322 a.u.
2'F-ANA at 1 2 5 7 8 12 15,133 a.u.
2'F-ANA at 2 5 7 8 9 11 12 13 14,50.9 a.u.
2'F-ANA at 3 4 5 7 9 10 13 15,58.4 a.u.
2'F-ANA at 1 2 3 4 5 7 8 12 13 14 15,141 a.u.

# Sample 4 — method: RNA Bind-n-Seq; form: RNA; matrix: in vitro; concentration: 100 nM; reference: input RNA pool; reading: higher = stronger binding
# Target: RING finger protein unkempt homolog, zinc fingers 1-6, SBP tag (UNK, Homo sapiens, UniProt Q9C0B0, residues 30-357)
# Sequence of UniProt Q9C0B0 (30-357, looked up): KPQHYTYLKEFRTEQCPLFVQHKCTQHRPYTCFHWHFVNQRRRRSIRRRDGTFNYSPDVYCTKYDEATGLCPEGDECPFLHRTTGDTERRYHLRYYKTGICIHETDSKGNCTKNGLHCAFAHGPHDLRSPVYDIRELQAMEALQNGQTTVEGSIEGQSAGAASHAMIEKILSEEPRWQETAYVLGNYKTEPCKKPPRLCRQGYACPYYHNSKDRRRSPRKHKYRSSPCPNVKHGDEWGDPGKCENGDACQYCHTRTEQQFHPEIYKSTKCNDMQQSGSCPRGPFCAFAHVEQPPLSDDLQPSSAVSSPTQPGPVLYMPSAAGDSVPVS
# Setting: RNA with constant flanks, vertebrate orthologous sites, ends assumed
# Constant ends, left off below: GGGAGUUCUACAGUCCGACGAUC … CAACAGAGGAUUGAGCAUCA
Oligonucleotide,bound/input enrichment [ratio]
GCCAUUUUUUUUCCACGUUUUCUGUAAAUAAUGGAUAAUCAUUUUUAAAAAUUUUAUUUUUAGUGCUGUUUUAGCAAUGUGGAUAGAUCAUAAAUGUACUUGCUGAAUUCAAUCAUUUUU,0.279
GUUUGUUUUUUAAUUUUAUUUUUAUUUUUUCCUUUUGGGGGUAAAGUUUGCUCUACCAAAUAGUGAUUGUAACCAAUUGAUCUGUUUGGGAUGUUGCUAUAGUGACAUGCAGUUCUCUAU,2.42
UGUGCUAAUAUUCUUCUAGGGAAGAGAUGAAUUGGGGAAAACUGUCUCCGUUUUAUAGAUUAGUUUGUUUCUAAAUUAUGACCAAAAAAUAUUUUGCUAUUUCUUUCUUUAUAUAUGGAC,0.895
UUCAGGCACAACUGACUGGUUCACAGCACUCCUUACAUAGUUAUCUAUCAAAUUCAAGUGUAGUUAAUUUUCAGGAAACAACCAGGCAGUCAUCUUUAUCCUGUAGCCCAGUUGGAGAUU,1.37
UCCUCAACUUGUUCUAGCUGGUGAUCCUUCAAAGUUGGGUCAGGCAUUAGUGCUAGGUACUAGAAAUGUUCAUUUCUCUGUUGCCAUUGAUCAGAGAGACAGACAUUAAAAAACAGUAAC,0.479
GUAGUUUGUUUUUAAUUUCAAGCAAAAAAUCUUAUUGUACUUGAAUGUGUCCUGUUUUGUUAGCACACAUAGACUUGCUGUAACUGUACUCAUGUCCCAGUAUGUAUGUUCUUUCUAUGA,0.905
UGUGCUCAUGUAUAGUAAUUAGAGUGGGUUGUCCCUCUACUGCCAAGAAGAAAUCCCAGAUAGAUUCCUUUCAUGUCGGAUUAUACUGUUCUGAUUUUAUUUUCUAUUAUUUUUCUUAUG,0.85
UCCUCAACUUGUUGUAGCUUGUGAUCCUUCAAAGUUGGGUCAGGCAUUAGUGCUAGAUACUAGAAAUUUUCAUUUCCCUGUUGCUAUUGAUCAGAGAGACAGGCAUUAAUUAAAAACAAA,0.993
CACAUCGGGUGAUAUUUGGCCUGGCCUUUCAGCUUAUGAUAAUAGUCCCAGAUCACCACACAGUCCUUCACCUAUUGCUACACCACCAAGUCAGAGUUCAUCUUGCUCUGAUGCCCCUAU,0.613
AAAUAUACUUCAUGCCAUGGACUCCAUACCGUACCGAUACUUUGAUAGAAUACGCUUCUUUAGAGGACUUCCAAAAUGGACGGCAACAGACGACAUAUAAGCUUCCAAAUCGAGUGGAUG,0.793
UCAUUGUACUGCAAAAAUCAUCCUAGUUCUAAACUAGCCACAGUGAUAACUAGUCUGCACUAAUAGAAUCAUUUGCUAUUACCUUUUAAAUUAUCUGCUUUGUCUGAUACCUAAAGCACA,0.887

# Sample 5 — method: RNAcompete; form: RNA; matrix: in vitro; concentration: 20 nM; setting: 7-mer, probes averaged, single round; reference: mean of 7-mers; reading: higher = stronger binding
# Target: PABPC1L2, full length, GST fusion (mouse, UniProt A0ABA7IW68)
# Residues (chain): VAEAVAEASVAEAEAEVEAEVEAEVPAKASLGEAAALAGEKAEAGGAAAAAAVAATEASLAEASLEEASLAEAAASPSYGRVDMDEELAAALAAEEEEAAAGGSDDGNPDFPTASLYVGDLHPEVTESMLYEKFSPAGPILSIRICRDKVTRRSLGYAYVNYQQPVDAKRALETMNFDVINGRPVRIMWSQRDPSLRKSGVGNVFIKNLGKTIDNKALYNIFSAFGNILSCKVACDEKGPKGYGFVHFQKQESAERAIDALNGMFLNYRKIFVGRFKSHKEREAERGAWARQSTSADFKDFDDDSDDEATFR
Oligonucleotide,7-mer Z-score
AUAAGUA,0.095
CGAUAGA,0.037
UAAAUGU,0.195
CCAUAUC,-0.24
AGACGCG,-0.209
CAGGAUG,0.122
AAGGCUA,0.245
UGCGUAA,-0.112
CAUUUCG,-0.353
CAUUGCA,-0.115
UUAUCAA,-0.0899
CGACUGA,0.113
AAAAAGG,13.5
GUUGCUG,-0.206
UCGGCCG,-0.157
CUUUGCA,-0.338

# Sample 6 — method: universal PBM; form: double-stranded DNA, one strand shown; matrix: in vitro; concentration: 600 nM; reading: higher = stronger binding
# Target: Sal-like protein 4, full length isoform A (SALL4, Homo sapiens, UniProt Q9UJQ4, residues 1-1053)
# Sequence of UniProt Q9UJQ4 (whole entry, looked up): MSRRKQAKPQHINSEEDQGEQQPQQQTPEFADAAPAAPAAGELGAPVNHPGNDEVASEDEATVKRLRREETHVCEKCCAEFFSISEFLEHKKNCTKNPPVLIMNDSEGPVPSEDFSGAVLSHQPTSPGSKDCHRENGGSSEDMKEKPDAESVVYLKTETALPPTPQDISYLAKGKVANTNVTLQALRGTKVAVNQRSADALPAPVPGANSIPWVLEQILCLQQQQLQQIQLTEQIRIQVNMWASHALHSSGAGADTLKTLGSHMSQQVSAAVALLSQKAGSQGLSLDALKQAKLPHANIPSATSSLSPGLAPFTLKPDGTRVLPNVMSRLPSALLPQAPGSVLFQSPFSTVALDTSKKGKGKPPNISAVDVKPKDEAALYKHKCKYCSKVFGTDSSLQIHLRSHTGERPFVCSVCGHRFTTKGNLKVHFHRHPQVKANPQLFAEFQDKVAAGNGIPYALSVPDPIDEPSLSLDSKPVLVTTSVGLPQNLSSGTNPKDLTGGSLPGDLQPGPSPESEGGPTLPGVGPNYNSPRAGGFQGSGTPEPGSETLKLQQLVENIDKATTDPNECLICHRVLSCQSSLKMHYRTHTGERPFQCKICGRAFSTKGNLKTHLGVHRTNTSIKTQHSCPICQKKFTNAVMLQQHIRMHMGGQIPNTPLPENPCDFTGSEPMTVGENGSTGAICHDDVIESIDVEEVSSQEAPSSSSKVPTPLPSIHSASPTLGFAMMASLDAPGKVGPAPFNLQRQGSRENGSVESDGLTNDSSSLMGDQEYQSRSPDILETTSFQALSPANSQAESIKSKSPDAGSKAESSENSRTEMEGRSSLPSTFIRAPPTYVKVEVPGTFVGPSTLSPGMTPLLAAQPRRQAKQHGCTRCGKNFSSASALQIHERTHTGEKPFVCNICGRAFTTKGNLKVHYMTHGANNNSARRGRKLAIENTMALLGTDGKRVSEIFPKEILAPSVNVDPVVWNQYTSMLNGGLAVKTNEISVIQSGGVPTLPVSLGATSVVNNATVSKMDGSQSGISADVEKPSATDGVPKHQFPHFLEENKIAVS
# Setting: 8-mer, flanks averaged, mean of replicates
Oligonucleotide,E-score
ATTCAGGA,0.132
CCAGCTCC,-0.392
ATGAGGCA,0.0195
AGGGGTCG,-0.271
AGGCCTTG,-0.324
ACCTTTAT,0.168
TAGAAGAA,0.141
ACACAAGA,0.163
AAGGTACC,-0.216
GTCCGACA,-0.155
ACCGTAAT,0.138
ACGTTGAG,-0.0464
GTGGGCTA,-0.0658
ATTTAGAA,0.2
AGCACTAG,-0.0695
CGTAATAC,0.194
CCTAAGGC,-0.314
AGTTAACG,0.115

# Sample 7 — method: RNA Bind-n-Seq; form: RNA; matrix: in vitro; concentration: 365 nM; reference: no-protein control; reading: higher = stronger binding
# Target: RNA binding protein fox-1 homolog 2, RRM domain, GST-SBP tag (RBFOX2, Homo sapiens, UniProt O43251-10, residues 100-194)
# Setting: natural RNA segment, single round, ends assumed
# Constant ends, left off below: GGGAGUUCUACAGUCCGACGAUC … UGGAAUUCUCGGGUGCCAA
# Target sequence (chain): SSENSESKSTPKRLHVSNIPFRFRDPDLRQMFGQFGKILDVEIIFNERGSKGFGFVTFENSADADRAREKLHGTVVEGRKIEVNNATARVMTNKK
Oligonucleotide,RBNS enrichment (R)
AGCAUAGGGUCACUUUGCCAUUAUGCAAAUGGAGAUAAAAGCAAUUCUGACUGUCCAGGAGCUAAUCUGACCGUUCUAUUGUGUGGAUGACCACAUAAGAAGGCAAUUUU,0.312
UUAUUUCUGAGCAAAGCAUCGGUCAUGUGUGUAUUUUUUCAUAGUCCCACCUUGGAGCAUUUAUGUAGACAUUGUAAAUAAAUUUUGUGCAAAAAGGACUGGAAAAAUGA,1.34
CCGCAGGAACAAUGGAAAACUAUUUAAGGGAACAUUGCAGAAAUAUUUGAUGACUGUUUCUUGUGGAAGCCCAAAGUCCACUCUAAGAGCAGAAGAAAUACCAAAAUGUU,0.28
GAGGUAAUCCUUACAAAAUGAAGGUUUUCAUGCAACUAGAAAUAUAUUUUGAAAUAUAUUUGAUAUAGUACUCUGCCAUUUUCAUCAUGUUAACUUUCAGUGUCACCAUC,0.439
CGGUCACGUGGGCCUGGUCUUUUGUGUGUGAGGCCCUUGACCGUGUGGCCUCUGCCUGGCUGUUUGGGGUCCUGCACGGCUUUCCCACCACCUGUAGCUCUUGUUGACCU,0.892
UCGUCACGGUUAAAGAGAAAUGGGCUCGUCCCGAGGGUAGUGCCUGAUCAAUGAGGGCGGGGCCUGGCGUCUGAUCUGGGGCCGCCCUUACGGGGCAGGGCUCAGUCCUG,0.438
ACCUUUUGGGAAUCUAAUGUAUUGUAAGGUAUUUUACACGUGUCCUGAUUUUGCCACAACCUGGAUAUUGAAGCUAUCCAAGCUUUUGAAAUAAAAUUUAAAAACCCCCA,0.466
AUGUUGGGUCAAGGUUCUAGGAGCAGGACAGAGUGUUCCUGUCAUAGUACACACUAAGUUUCCCACUAGCAGAGUCCUCGCCAUGUCAUUUCUACCUCCAAAGUCAUCAG,0.347
CAUACAGGUUUUGUAGCUUAUUAUUAUGGAACAGACUGAAGAUCUGCAGUACGAAUUUAAUACUUAUAAAGGUUUGCAUUAAUGAGGAUUACACAGAAAACCUUUGUUAA,0.549
UGGAGACAAGAAAAAAUAAGUAGAUCGUUUUAAUAACAAUUAUUUAAUUGCCUAUAAGUUUGCUGUUUCAGAGGCUAGCCCAAAGGCAUCAAAUUUAAUAAAGUUAAACA,0.39
UUUACCGCCUUUUGAGGAACACAAAUCGGAGAACAAACCCAGGGUUCAGGCGUGUUUUCUGUGAAUGUUGGAUGAUGAAUUUUUGUCUCUUCUGGUGGAGCUGUGCCUGG,0.737
AUCCAAGUCCUCACACCCCUGUCAUCCCAGGAGAUCUUUCCUUGUGGUGGUUUCUGUGAGAAUUGGCCAUCCUGAGGACACAGCCAGGACGGCAGAGGCCUCCUGGCCUC,0.207
